Measured values from different studies.
Compare with care: the assays were run in different laboratories. Numbers after ± are the reported error.
Sequence of UniProt Q9P1W9 (whole entry, looked up): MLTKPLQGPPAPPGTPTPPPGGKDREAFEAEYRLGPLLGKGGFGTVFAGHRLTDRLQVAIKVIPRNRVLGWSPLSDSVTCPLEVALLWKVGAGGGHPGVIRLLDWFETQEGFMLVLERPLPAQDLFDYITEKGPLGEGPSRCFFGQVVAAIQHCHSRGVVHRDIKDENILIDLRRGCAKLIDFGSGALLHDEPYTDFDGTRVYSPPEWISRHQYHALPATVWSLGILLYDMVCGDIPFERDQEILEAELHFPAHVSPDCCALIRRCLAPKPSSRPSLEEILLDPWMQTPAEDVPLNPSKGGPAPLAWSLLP
Sequence of UniProt Q92947 (whole entry, looked up): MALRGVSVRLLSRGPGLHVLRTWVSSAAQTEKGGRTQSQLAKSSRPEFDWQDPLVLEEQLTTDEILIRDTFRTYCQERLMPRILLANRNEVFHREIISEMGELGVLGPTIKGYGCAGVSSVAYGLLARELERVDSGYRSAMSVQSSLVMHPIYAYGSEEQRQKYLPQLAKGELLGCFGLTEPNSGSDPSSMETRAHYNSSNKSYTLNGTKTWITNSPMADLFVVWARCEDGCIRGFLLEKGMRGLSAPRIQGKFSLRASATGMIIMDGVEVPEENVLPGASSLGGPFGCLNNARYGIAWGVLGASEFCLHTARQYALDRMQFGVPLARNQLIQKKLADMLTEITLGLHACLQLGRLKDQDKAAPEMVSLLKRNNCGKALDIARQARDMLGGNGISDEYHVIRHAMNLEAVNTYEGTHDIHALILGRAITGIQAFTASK
Sequence of UniProt O00238 (whole entry, looked up): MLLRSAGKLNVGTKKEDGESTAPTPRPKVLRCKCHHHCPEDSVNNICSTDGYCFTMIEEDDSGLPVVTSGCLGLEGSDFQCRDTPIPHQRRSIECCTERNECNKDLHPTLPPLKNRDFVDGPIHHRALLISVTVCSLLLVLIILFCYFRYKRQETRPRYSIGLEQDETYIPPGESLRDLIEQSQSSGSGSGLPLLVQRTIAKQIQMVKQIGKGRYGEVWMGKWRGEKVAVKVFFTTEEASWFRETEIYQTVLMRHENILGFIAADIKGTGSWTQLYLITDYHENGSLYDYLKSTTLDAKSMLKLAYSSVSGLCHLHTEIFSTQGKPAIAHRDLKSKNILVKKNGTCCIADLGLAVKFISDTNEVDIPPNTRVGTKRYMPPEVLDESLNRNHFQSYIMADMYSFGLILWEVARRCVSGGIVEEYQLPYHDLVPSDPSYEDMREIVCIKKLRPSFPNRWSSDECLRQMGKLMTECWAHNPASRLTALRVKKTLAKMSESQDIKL
Sequence of UniProt Q13163 (whole entry, looked up): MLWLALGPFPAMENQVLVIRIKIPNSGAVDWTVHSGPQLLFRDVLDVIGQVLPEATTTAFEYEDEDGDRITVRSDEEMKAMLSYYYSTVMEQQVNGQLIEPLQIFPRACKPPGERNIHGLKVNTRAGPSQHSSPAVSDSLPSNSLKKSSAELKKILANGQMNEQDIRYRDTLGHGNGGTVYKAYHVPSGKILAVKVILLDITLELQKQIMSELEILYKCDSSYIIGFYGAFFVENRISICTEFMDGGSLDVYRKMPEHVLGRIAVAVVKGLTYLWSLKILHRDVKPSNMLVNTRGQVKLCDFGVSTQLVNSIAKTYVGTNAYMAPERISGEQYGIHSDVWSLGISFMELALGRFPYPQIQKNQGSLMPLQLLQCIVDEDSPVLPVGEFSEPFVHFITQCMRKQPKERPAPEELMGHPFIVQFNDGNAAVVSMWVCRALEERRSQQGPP
Sequence of UniProt P45983 (whole entry, looked up): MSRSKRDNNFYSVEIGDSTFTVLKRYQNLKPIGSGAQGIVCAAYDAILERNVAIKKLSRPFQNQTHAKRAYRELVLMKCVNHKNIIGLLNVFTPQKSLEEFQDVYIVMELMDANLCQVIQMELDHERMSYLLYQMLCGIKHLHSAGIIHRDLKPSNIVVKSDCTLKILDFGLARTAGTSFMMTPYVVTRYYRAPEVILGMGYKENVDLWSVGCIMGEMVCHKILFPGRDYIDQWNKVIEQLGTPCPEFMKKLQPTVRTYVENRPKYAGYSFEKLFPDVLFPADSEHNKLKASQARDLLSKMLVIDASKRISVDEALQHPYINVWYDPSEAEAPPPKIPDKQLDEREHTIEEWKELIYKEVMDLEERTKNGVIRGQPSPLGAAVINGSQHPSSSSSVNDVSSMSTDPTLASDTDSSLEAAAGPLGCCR
Sequence of UniProt P48067 (whole entry, looked up): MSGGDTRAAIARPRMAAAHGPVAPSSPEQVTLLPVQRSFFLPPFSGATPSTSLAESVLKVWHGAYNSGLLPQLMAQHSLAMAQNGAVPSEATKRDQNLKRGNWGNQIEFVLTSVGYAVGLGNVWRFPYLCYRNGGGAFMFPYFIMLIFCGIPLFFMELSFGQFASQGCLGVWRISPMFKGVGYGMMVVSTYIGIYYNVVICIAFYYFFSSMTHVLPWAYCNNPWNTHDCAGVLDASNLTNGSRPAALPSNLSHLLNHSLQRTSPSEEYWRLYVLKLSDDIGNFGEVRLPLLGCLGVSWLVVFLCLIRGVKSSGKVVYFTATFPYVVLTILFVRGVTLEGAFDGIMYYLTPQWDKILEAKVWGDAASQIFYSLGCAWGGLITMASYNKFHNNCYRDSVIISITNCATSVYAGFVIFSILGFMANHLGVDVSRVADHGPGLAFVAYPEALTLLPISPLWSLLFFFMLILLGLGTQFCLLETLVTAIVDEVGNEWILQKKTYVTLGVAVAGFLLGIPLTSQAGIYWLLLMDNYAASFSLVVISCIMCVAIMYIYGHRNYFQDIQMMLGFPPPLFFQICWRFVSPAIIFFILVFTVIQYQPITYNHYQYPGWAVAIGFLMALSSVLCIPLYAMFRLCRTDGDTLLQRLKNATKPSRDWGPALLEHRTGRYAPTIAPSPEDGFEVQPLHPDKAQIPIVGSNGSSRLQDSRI
Sequence of UniProt Q7KZI7 (whole entry, looked up): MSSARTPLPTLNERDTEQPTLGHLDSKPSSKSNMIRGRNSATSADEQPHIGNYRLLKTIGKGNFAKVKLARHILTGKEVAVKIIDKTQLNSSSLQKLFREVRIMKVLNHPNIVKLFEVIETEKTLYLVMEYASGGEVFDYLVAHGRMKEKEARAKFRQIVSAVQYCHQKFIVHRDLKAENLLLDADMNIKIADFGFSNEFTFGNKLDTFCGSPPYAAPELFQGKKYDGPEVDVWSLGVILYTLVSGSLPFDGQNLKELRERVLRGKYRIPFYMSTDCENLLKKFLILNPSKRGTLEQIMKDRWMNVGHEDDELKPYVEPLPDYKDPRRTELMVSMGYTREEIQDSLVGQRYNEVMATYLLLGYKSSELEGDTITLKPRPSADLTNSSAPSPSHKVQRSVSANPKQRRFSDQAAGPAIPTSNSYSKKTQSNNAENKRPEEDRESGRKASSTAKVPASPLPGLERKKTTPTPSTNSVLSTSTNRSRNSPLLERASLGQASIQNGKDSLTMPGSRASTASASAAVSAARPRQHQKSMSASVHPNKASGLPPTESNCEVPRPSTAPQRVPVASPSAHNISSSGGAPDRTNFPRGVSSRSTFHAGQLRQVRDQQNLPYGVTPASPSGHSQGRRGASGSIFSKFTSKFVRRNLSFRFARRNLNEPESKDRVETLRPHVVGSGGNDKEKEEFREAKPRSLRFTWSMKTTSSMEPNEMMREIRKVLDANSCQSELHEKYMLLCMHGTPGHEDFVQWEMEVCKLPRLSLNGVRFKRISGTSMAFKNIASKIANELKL
Sequence of UniProt Q9BYT3 (whole entry, looked up): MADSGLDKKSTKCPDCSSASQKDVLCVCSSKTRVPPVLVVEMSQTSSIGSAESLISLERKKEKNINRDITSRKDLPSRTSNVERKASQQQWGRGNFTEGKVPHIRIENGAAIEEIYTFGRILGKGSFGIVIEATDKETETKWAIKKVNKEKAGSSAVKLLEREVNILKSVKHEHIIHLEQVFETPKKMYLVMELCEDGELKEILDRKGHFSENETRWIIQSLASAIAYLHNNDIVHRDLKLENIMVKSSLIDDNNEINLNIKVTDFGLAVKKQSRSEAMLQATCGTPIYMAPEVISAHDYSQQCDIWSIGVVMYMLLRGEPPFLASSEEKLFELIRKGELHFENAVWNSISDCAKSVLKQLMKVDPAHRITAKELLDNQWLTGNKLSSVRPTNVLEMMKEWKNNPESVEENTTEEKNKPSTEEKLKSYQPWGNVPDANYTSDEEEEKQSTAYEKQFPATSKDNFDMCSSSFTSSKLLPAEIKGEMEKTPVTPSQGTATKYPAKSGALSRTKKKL

| SMILES | tested on | test | system | setting | how to read | quantity | result |
| --- | --- | --- | --- | --- | --- | --- | --- |
| Cc1cc(NC(=O)c2cccc(NC(=O)/C=C/CN(C)C)c2)ccc1Nc1nccc(-c2cccnc2)n1 | Mitogen-activated protein kinase 8 (MAPK8, Homo sapiens, UniProt P45983) | enzyme activity, inhibitor |  | 0.006774 µM, 0 h, unit not given, together with: GSH 10 mM pre-incubation | reference: vehicle | remaining activity | 0.856 |
| CNCC(=O)O | Sodium- and chloride-dependent glycine transporter 1 (SLC6A9, Homo sapiens, UniProt P48067) | [3H]glycine uptake, inhibitor | HEK293F cells | 1000 µM | reference: cells without inhibitor | remaining activity | 80.5% |
| Cc1cc(Nc2cc(N3CCN(C)CC3)nc(Sc3ccc(NC(=O)C4CC4)cc3)n2)[nH]n1 | Serine/threonine-protein kinase 33 (STK33, Homo sapiens, UniProt Q9BYT3) | kinase activity, KinaseProfiler |  | 0.03 µM, species human | reference: control | remaining activity | 96% |
| COc1c(O)c(C)cc2c1C(=O)c1c(ccc(O)c1O)C2=O | HepaRG co-cultured with HK-2 | MTT |  | 266.67 µM, 24 h | reference: untreated control | cell viability | 87.8 ± 12.5% |
| Clc1ccc(C(c2c[nH]c3ccccc23)c2c[nH]c3ccccc23)cc1 | COS-7 | WST-8 |  | 30 µM, 24 h, 0.1% DMSO, unit not given | reference: vehicle control | metabolic activity | 0.13 ± 0.01 |
| O=C(O)c1ccc(Nc2ncc3c(n2)-c2ccc(Cl)cc2C(c2c(F)cccc2F)=NC3)cc1 | MKK4(m) | kinase activity |  | 1 µM |  | remaining activity | 120% |
| O=C(NC1CCC1)c1ccc2nc(-c3cccc(NS(=O)(=O)NCCN4CCCCC4)c3)cn2c1 | Bone morphogenetic protein receptor type-1B (BMPR1B, Homo sapiens, UniProt O00238) | enzyme activity |  | 10 µM |  | remaining activity | 75% |
| COc1cc(Nc2ncc3c(n2)-c2ccc(Cl)cc2C(c2c(F)cccc2OC)=NC3)ccc1C(=O)O | GRK6 | kinase activity |  | 1 µM |  | remaining activity | 94% |
| COc1cc(-c2cncc3c2CN(C)Cc2cc(N4CCNCC4)ccc2-3)cc(OC)c1OC | Serine/threonine-protein kinase pim-2 (PIM2, Homo sapiens, UniProt Q9P1W9) | kinase activity |  | 1 µM, human enzyme, together with: ATP 10 µM | reference: DMSO control | remaining activity | 110% |
| C=CC(=O)N1CCC[C@@H](n2nc(-c3ccc(Oc4ccccc4)cc3)c3c(N)ncnc32)C1 | Glutaryl-CoA dehydrogenase, mitochondrial (Homo sapiens, UniProt Q92947) |  |  | 10 µM |  | remaining activity | 50.6% |
| O=C1NC(=O)/C(=C/c2ccc(-c3ccc(F)cc3O)o2)S1 | Serine/threonine-protein kinase MARK2 (MARK2, Homo sapiens, UniProt Q7KZI7) | enzyme activity |  | 10 µM |  | remaining activity | 90% |
| O=C(O)c1cc(O)c2c(c1)C(=O)c1cccc(O)c1C2=O | HepaRG co-cultured with HK-2 | MTT |  | 33.33 µM, 48 h | reference: untreated control | cell viability | 66.7 ± 10.1% |
| CNc1ncc2c(/C=C/C(=O)N3CCC(OC)CC3)nn(Cc3cccc(C(F)(F)F)c3)c2n1 | Dual specificity mitogen-activated protein kinase kinase 5 (MAP2K5, Homo sapiens, UniProt Q13163) | kinase activity, inhibitor |  | 1 µM | reference: untreated control | remaining activity | 107% |
| COc1cc(F)ccc1-c1ncnc(Nc2cccc(C[S@](C)(=N)=O)c2)n1 | Ephrin type-A receptor 4 (EPHA4, Homo sapiens, UniProt P54764) | kinase activity |  | 10 µM, together with: 10 µM ATP |  | remaining activity | 95% |
| O=C(O)CCc1nc(-c2ccccc2)c(-c2ccccc2)o1 | COS-7 | WST-8 |  | 50 µM, 24 h, 0.1% DMSO, unit not given | reference: vehicle control | metabolic activity | 0.87 ± 0.2 |

Some of these lines once more:
| SMILES | tested on | test | system | setting | how to read | quantity | result |
| --- | --- | --- | --- | --- | --- | --- | --- |
| O=C(O)c1ccc(Nc2ncc3c(n2)-c2ccc(Cl)cc2C(c2c(F)cccc2F)=NC3)cc1 | MKK4(m) | kinase activity |  | 1 µM |  | remaining activity | 120% |
